Assay results of several laboratories.
Numbered parts are unrelated; each lists some results of a single study.

Study 1 — technique: competition protein-binding microarray; form: double-stranded DNA, one strand shown; medium: in vitro; concentration: 2 µM; together with: Pho4 competitor, 0.05 µM; direction: higher = stronger binding; shared flanks, not repeated: … GTCTTGATTCGCTTGACGCTGCTG
Target: Centromere-binding protein 1, full length, His-tagged (CBF1, Saccharomyces cerevisiae, UniProt P17106, residues 1-351)
UniProt P17106, sequence (whole entry, looked up): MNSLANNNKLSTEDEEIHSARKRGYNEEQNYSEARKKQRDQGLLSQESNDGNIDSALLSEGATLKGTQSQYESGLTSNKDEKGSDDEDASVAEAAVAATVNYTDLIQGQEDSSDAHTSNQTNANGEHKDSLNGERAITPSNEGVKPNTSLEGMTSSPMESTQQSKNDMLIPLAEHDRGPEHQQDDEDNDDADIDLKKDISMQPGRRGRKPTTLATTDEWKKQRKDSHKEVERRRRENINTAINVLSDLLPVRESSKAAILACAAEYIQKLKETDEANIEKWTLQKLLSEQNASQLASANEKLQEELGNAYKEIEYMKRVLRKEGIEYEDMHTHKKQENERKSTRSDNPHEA
Setting: whole 60-bp probe, lowest competitor level
Sequence	fluorescence intensity
ATTATGGTAGAGACCCTCGTGAATACTGCATCTTGT	90.1 a.u.
CTTCTGTAAATTTGCAACGTGGGTGGACGCGCCCCG	83.2 a.u.
TGTAAGTTGCAATCGCACGTGTGTTGTAGCCATGTA	768 a.u.
TTCACTTGTTTGAAAAACGTGTCGGAGGGATGTTCT	106 a.u.
GCCAAAGTGGTCTTTCACATGCTTACCTACCCGCTA	75.8 a.u.
AAGTGGTTACAAATTCACGTGCTGTGATTGGAAACT	1290 a.u.
TGTGATTCCTCGGGCCACGTGAAATGAATCAGCCCT	823 a.u.
TTGAGATACCTCAGTGATGTGGCACAGCGTAAGGAG	75.8 a.u.
CTTATCTCGAGGAGTAACGTGGGTAGTTTGTTGGTC	103 a.u.
CATACCCAACCTTGGTACGTGGGTGAAGATATTTGT	66.3 a.u.
CTATTGTCTTAGAATCACGTGGACCCTAGACTATAG	3740 a.u.
AAAACAAGATTCTCCACCGTGATGGAAAACCTCAAA	90.2 a.u.
GTTGTTGCTATCCATCACGTGATGGATTTTTCCGAG	11900 a.u.
CTTTCCCGATCTTTTCACGTGCTATTAGCACATTTG	1110 a.u.
GAATTGTGGCCGCGACACCTGACAAACAATCCTCAG	187 a.u.
TGCGCAACAACTTGGTTGGTGGGTGTATGTCTAGAA	59.2 a.u.
GTAACAGTATACGATCATGTGATATTACGTACATAA	1880 a.u.
CTTGCTCACTTCTGGCGTGTTCAAGTGGGGATCTGT	70.3 a.u.
CAGTTATGAGACTGTATCATGACAATACCTTATTTG	84 a.u.
CACTGTTCGCTTCGTCATGATCAATGGTGTTACTGA	79.9 a.u.
CCCAGACCCACCCAGATCGTGATGGTTGTTACCATC	69 a.u.
CGGAATTCCTGAACCGCCGTGACTCGGAGAATAAAT	80.9 a.u.
TACTTCGATGCCCAACACGTTATTCACATCTCTCAA	103 a.u.
AACTGCTGAAGTCCCCATGTGACAGTGAGCGGGGTC	284 a.u.
TCAAAAAGGGACAATCACCTGGATGCATAAGGAGGA	76.1 a.u.

Study 2 — technique: RNA Bind-n-Seq; form: RNA; medium: in vitro; concentration: 200 nM; setting: whole 134-nt RNA, ends assumed; together with: 150 mM LiCl; baseline: input library; direction: higher = stronger binding; library: 7-deaza-guanosine replaces G
Target: Ras GTPase-activating protein-binding protein 1, full length (G3BP1, Homo sapiens, UniProt Q13283)
UniProt Q13283, sequence (whole entry, looked up): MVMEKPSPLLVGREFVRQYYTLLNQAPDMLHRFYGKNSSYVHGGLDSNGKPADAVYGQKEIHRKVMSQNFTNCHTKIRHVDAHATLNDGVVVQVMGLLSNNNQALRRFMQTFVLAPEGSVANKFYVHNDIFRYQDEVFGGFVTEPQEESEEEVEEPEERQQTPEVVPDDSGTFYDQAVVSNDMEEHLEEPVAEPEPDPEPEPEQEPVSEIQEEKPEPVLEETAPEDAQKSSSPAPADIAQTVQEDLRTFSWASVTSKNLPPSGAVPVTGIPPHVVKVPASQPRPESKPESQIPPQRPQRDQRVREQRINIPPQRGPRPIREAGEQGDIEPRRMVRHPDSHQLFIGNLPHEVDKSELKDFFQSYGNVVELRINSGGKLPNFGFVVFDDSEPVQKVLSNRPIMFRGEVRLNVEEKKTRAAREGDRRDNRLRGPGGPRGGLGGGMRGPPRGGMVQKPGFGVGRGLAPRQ
Shared flanks, not repeated: GGGAGUUCUACAGUCCGACGAUC … UGGAAUUCUCGGGUGUCAAGG
Sequence	log2 enrichment
AAGUCCUGUGCUACACAUCGUAUGUACCGAAUCGGGGCCCCGGGCCCCGGGCCCCGGAAAGUAUUAUGUUACGCCGUUCGGAUCUGCACU	-0.36
ACCAUGCAGGUGGGCAUCUUUGGGAAGUGGGGCAAGGGGGGGAUAGGGAGGGGGGUAACACUUUGGGAACAGGUGGUCACAGGUCGUUUC	-0.161
UCCUGUGCUACACAUCGUAUGUACCGAAUCGGGCCCCCCGGGCCCCCCGGCCCCCCGGGGAAAGUAUUAUGUUACGCCGUUCGGAUCUGC	-0.115
AGUCCUGUGCUACACAUCGUAUGUACCGAAUCGGGGUGGGGAAAGGGGAAAAAGGGGAAAGUAUUAUGUUACGCCGUUCGGAUCUGCACU	0.391
UCAUUCUAUACAGCCUUUUGUUUCAUUAGGAUCAGGCAGCUAGAGACAUGAAGAGGCUUGAAGAAAAGGACAAGGAAAGAAAAAACGUAA	-2.1
GGGGACGGCAAAACAGAACAGAAAGGCGGAGAUAAAAAGAGGGGUGUUAAAAGACCACGAGAAGAUCAUGGCCGUGGAUAUUUUGAGUAC	0.577
UAACUUUAGAGGAGGAUCUGAUGGAUAUGGCAGUGGACGUGGAUUGGGGGAUGGCUAUAAUGGGUAUGGAGGAGGACCUGGAGGUGGCAA	-0.0382
CCUGUGCUACACAUCGUAUGUACCGAAUCGGCCCCCCCGGCCCCCCCGGGCCCCCCCGGGAAAGUAUUAUGUUACGCCGUUCGGAUCUGC	0.349
CUCAAGUCCUGUGCUACACAUCGUAUGUACCGAAUCGGAAGGGAAGGGGAAGGGAAAGUAUUAUGUUACGCCGUUCGGAUCUGCACUUCC	0.0345
ACCAUGCAGGUGGGCAUCUUUGGGAAGUGGGGCAAGGGGGGGAUAGGGAGGGGGGUAACACUUUGGGAACAGGUGGUCCCAAAACGUUUC	0.424
UUCCAUUGUGAACGUGCCUGGUGAGUCUACUCUUCGCCGAGAUUUCCUGAGACUGCAGCAGGAGAACAAGGAACGUUCCGAGGCUCUUCG	-0.735

Study 3 — technique: RNA Bind-n-Seq; form: RNA; medium: in vitro; concentration: not given; baseline: input RNA pool; direction: higher = stronger binding
Target: RING finger protein unkempt homolog, zinc fingers 1-6, GST-SBP tag (UNK, Homo sapiens, UniProt Q9C0B0, residues 30-357)
UniProt Q9C0B0, sequence (30-357, looked up): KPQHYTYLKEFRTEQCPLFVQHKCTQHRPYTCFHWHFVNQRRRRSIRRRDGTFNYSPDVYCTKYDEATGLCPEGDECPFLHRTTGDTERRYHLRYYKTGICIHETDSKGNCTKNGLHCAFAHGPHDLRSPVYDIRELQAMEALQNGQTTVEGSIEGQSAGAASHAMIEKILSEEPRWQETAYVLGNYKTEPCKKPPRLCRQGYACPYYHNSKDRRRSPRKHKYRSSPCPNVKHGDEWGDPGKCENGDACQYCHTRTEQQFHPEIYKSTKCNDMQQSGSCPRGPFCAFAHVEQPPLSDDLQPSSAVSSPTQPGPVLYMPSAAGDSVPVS
Setting: RNA with constant flanks, human-mouse chimeric sites, ends assumed
Shared flanks, not repeated: GGGAGUUCUACAGUCCGACGAUC … CAACAGAGGAUUGAGCAUCA
Sequence	bound/input enrichment
UAAGUUAUUUUGUACAGCUUUGUAAAUUCUUAACAUUUUUAUAUUGCCAUGUUUAUUUUGUUUGGGUAAUUUGGUUCAUUAAGUACAAAACCAAAUAAAUGAACAUCGUAAUUAUAGAUU	0.561 ratio
AAAGAGUGGAUAGAGUGUGCACACGGGAUCGGUGGGACCCGGGCGAAAAAGGAGUGCAAGAUAGAGUAUGAUGAUUUCGAAGAGUGCUUGCUUCGGUACAAAACGAUGAGGCGAAUGCAU	0.664 ratio
GGGACUGAUUCAUCCCAAGGACAGGCCGCCCAGUCUGAUGCCUGGACUGAUGACAGUAUGGAAGGGCCUAGUCAAAAUUUUGAAGCUGAGUCAAUUCAGGAUGCCAUGAGUAUGGAAGAG	0.207 ratio
AACUUCGUGCAUCGGUUUCCCUUUGUAGCUGUUUCAAUUGGCUUCCUUGUGAAUAAAAAGAUAGAAUUUGGAAUUGUGUACAGCUGUGUGGAAGAUAAGAUGUACACCGGCAGGAAAGGG	3.61 ratio
CUAAUCCCCUUUACUGCUCCACCACUGCUCAUGGUAAUAACAAAGUCUUAUAUCCCCGUCCUAGCUUUCACUCAGAUGGCUUAUGGAGCCGGUUUCCUAGCUUUCUUGGGAGGGAUCAGA	0.469 ratio
UUACCCGAGAACGAGGAUGAGCUGGAGAGCACCAACAGGCGCUACACCAAGAGGGACUGUAGCACUUUCCUCAGAACUAGUGAGACGGGCAUCGUGGAUCAGGUUAUGGUCACUCUCAAC	0.258 ratio
GAUCCACAGUGGUCUGAGGAGCAACUCAUUGCUGCAAAAUUCUGUUUUGCUGGCCUUGUUAUAGGGCAGACUGAAGUGGACAUCAUGAGUCAUGCCACACAGGCUAUUUUUGAAAUUCUG	0.169 ratio
GCUCUUGGGAAUGUAAUAAGUGCCUUGGGGGACAAGAGCAAGAGAGCCACCCAUGUCCCUUACAGAGACUCUAAGCUAACAAGACUAUUGCAGGAUUCCCUUGGGGGUAACAGCCAAACC	0.147 ratio
AGAGAUAAGACAUCCAGGAACAUGCGAGGCUCCCGGAUGAAUGGGUUGCCUAGCCCCACUCACAGCGCCCACUGUAGCUUCUACAGAACCAGAACCUUGCAGGCACUGAGUAAUGAGAAG	0.105 ratio
AUAGAUGAAAUUGAUGUGGACCAGGAAGGAAUUGCUGAAAUGAUCCUGGAUGAAAAUGCUAUUGCUCAGGUCCCACGCCCUGGAACGUCUUUGAAACUCCCUGGCACUAACCAAACAGGA	0.427 ratio
GGAAGCACAAUGAUGGAGAUUGAUGGUGACAAAGGCAAGCAGGGCGGGCCCACCUACUACAUAGACACUAAUGCUCUCCGCGUGCCCAGGGAGAACAUGGAGGCCAUCUCACCACUCAAG	0.528 ratio

Study 4 — technique: RNA Bind-n-Seq; form: RNA; medium: in vitro; concentration: 365 nM; baseline: no-protein control; direction: higher = stronger binding
Target: RNA binding protein fox-1 homolog 2, RRM domain, GST-SBP tag (RBFOX2, Homo sapiens, UniProt O43251-10, residues 100-194)
Setting: natural RNA segment, single round, ends assumed
Shared flanks, not repeated: GGGAGUUCUACAGUCCGACGAUC … UGGAAUUCUCGGGUGCCAA
Construct (chain): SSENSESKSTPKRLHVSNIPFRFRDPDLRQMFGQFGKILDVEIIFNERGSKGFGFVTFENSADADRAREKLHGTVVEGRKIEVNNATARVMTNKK
Sequence	RBNS enrichment (R)
CUGCCUGAGCCCCGUGGCCUCUCAGCUCUGCGGCCACCCCGUUCCCUCCCCAGCUUCCUGCCCAAAGAGCCCCACAUUCAAGCCAACUUGAGGGAAGGGGGCGUCUCGUC	0.466
CUUUUACUAAGAAGGGAUUUUUAAAUAUGGUGUCUACCUGGUAUCUCUCUCCCAAUAAGAAGCAGGUGCCUUUGGGGAAUGCUCCAACCUGUUUCAUCCCCAAAAGUUUU	0.555
CUUUAGUAUGCCACACUGAAAUGAAUAAGAAGUCUUCUGAAACUGGGAACUUCAUAACAUUGAAGGCAGAAGAUUCUGCUAAGGAAAAAAGCAGGCAGGAAAGAAAAUGU	0.848
UGGUCGUACACUGCUCAUUGUGCCACAGGUGUGACUGGAAAGCAUGAUAUUCUAGGGUUGGUUUGUAGAUUCAAAUAAUCCAGAAAUAUACCUAAUAAGAUUGAGUGAAA	9.03
CUCCAGUGAAAAUAGGUUGAAAGCCUGUUUUGAUCCAGUGUUUUCUCCCAAAGAACUCUACGUUAAACAUACACCAGUUUUCUUUUAUGACCUGGAGUUAGGAGUGAGUU	0.317
UUCUUUCUUCCUCUGCUGAAGGAAUAAAUUGCUCCUUGACAUUGUAGAGCUUCUGGCACUUGGAGACUUGUAUGAAAGAUGGCUGUGCCUCUGCCUGUCUCCCCCACCGG	0.631
UGAACGUGGAUUGUAUUUAAGACAUAAACAAAGACAUUGACAGCAAUUCAUGGUUCAAGUAUUAAGCAGUUCAUUCUACCAAGCUGUCACAGGUUUUCAGAGAAUUAUCU	0.521
UGGCAGUGAAAAAUAUGUUGAGUGUUCAUUUUAGUGACUGUAAUUAAUAUCUUGCUGGAUUAAUGUUUUGUACAAUUACUAAAUUGUAUACAUUUUGUUAUAGAAUACUU	0.454
CAAGAUUAGUCCACGAAUGAUCCCCACCUCUUCUGCACAGGAUCCGUGGUCGUGACCCCACUGGCUCUGGCUGUAGCUUGCCAAGGGCACUGGCGUUGCUUGUGACAGCC	0.696
UCACUUUUACAUUAUAAUAAAAAGUUUGGAAAAGUUACUUUUCUUGUUUUAUUUUUACAUCAUAUUCAUUCUGUCAGAAGUAAGCAUGAAAUUACUCAGUAUCCAUGUCA	1.04
CUCCAGGAGAGAGCGCUCCAGGUACUCUACCGACUGAGACAGGUCCCAAGCCCUAACAGGCCUUCACUCUCUUGAUAGUCUUUCCUUUACAGUCAAGGACUACGUUAAAG	0.245
AACAUAGUUUGUAAAGGCAUUCUAUAAGCUAUUUAUGUAAAAUCAAUAAAAGUUGAUCAUAAUUAAACUGUAUCAGUUGAGUAUUAUAGCAGCACAAAGUAUUCUUUGUA	1.07

For quick reference, copied from above (study 3):
Sequence	bound/input enrichment
AAAGAGUGGAUAGAGUGUGCACACGGGAUCGGUGGGACCCGGGCGAAAAAGGAGUGCAAGAUAGAGUAUGAUGAUUUCGAAGAGUGCUUGCUUCGGUACAAAACGAUGAGGCGAAUGCAU	0.664 ratio
AACUUCGUGCAUCGGUUUCCCUUUGUAGCUGUUUCAAUUGGCUUCCUUGUGAAUAAAAAGAUAGAAUUUGGAAUUGUGUACAGCUGUGUGGAAGAUAAGAUGUACACCGGCAGGAAAGGG	3.61 ratio
GCUCUUGGGAAUGUAAUAAGUGCCUUGGGGGACAAGAGCAAGAGAGCCACCCAUGUCCCUUACAGAGACUCUAAGCUAACAAGACUAUUGCAGGAUUCCCUUGGGGGUAACAGCCAAACC	0.147 ratio
GAUCCACAGUGGUCUGAGGAGCAACUCAUUGCUGCAAAAUUCUGUUUUGCUGGCCUUGUUAUAGGGCAGACUGAAGUGGACAUCAUGAGUCAUGCCACACAGGCUAUUUUUGAAAUUCUG	0.169 ratio
GGGACUGAUUCAUCCCAAGGACAGGCCGCCCAGUCUGAUGCCUGGACUGAUGACAGUAUGGAAGGGCCUAGUCAAAAUUUUGAAGCUGAGUCAAUUCAGGAUGCCAUGAGUAUGGAAGAG	0.207 ratio
UUACCCGAGAACGAGGAUGAGCUGGAGAGCACCAACAGGCGCUACACCAAGAGGGACUGUAGCACUUUCCUCAGAACUAGUGAGACGGGCAUCGUGGAUCAGGUUAUGGUCACUCUCAAC	0.258 ratio
CUAAUCCCCUUUACUGCUCCACCACUGCUCAUGGUAAUAACAAAGUCUUAUAUCCCCGUCCUAGCUUUCACUCAGAUGGCUUAUGGAGCCGGUUUCCUAGCUUUCUUGGGAGGGAUCAGA	0.469 ratio
GGAAGCACAAUGAUGGAGAUUGAUGGUGACAAAGGCAAGCAGGGCGGGCCCACCUACUACAUAGACACUAAUGCUCUCCGCGUGCCCAGGGAGAACAUGGAGGCCAUCUCACCACUCAAG	0.528 ratio
